Experimental data pooled from the literature.
Numbered parts are unrelated; each lists some results of a single study. Changes are numbered by the printed parent chain.
UniProt P42681, sequence (whole entry, looked up): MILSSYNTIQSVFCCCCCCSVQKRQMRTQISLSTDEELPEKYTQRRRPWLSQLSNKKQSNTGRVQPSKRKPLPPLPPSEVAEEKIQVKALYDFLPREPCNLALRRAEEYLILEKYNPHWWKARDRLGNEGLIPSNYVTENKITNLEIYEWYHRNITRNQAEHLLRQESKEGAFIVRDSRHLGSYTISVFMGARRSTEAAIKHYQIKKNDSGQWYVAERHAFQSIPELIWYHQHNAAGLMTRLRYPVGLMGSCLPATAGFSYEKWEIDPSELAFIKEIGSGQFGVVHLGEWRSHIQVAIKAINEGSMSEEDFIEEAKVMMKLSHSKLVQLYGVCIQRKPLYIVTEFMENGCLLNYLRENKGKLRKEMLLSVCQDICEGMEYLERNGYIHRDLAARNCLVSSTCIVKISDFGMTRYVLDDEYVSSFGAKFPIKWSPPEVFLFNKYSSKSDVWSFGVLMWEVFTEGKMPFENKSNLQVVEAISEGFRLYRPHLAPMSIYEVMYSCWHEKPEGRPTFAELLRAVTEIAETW
UniProt Q9UEE5, sequence (whole entry, looked up): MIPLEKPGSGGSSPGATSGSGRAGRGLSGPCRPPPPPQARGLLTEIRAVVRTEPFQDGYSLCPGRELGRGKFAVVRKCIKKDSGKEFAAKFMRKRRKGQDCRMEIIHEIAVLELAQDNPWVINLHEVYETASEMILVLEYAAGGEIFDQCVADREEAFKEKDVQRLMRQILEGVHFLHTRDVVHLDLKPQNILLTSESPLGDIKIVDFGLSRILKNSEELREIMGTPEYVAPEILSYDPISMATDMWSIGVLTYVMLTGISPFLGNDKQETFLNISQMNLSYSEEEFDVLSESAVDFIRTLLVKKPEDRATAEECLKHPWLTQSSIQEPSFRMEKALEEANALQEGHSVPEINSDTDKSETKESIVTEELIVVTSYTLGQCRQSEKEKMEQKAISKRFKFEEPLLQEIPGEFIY
UniProt Q86UX6, sequence (whole entry, looked up): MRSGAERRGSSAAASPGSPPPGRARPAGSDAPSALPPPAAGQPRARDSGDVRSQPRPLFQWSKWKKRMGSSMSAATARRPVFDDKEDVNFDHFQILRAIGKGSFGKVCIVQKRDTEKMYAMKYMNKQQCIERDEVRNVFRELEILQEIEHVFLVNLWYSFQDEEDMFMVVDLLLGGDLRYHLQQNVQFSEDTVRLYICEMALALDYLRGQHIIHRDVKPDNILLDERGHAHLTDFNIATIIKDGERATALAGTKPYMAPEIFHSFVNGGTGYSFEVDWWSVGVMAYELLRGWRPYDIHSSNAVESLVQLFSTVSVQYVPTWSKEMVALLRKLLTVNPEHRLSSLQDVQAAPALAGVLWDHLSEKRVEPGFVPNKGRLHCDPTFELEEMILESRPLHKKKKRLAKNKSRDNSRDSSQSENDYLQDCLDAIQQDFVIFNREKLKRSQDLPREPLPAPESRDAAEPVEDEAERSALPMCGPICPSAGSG
UniProt P0C1S8, sequence (whole entry, looked up): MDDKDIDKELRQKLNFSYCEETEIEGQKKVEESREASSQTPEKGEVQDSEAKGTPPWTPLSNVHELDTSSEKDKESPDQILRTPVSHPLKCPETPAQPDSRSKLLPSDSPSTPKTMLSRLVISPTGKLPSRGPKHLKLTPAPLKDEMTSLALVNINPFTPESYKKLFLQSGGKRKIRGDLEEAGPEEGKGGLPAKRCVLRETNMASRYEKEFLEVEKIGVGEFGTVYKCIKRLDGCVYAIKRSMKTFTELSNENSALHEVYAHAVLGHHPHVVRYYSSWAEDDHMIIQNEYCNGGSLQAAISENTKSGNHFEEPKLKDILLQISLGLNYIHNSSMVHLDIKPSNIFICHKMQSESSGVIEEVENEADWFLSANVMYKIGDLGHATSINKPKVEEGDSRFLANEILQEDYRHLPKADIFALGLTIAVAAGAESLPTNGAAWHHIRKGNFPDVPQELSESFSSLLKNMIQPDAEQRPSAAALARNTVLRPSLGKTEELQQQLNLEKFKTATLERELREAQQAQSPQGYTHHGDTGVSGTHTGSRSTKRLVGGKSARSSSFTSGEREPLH
UniProt P27448, sequence (whole entry, looked up): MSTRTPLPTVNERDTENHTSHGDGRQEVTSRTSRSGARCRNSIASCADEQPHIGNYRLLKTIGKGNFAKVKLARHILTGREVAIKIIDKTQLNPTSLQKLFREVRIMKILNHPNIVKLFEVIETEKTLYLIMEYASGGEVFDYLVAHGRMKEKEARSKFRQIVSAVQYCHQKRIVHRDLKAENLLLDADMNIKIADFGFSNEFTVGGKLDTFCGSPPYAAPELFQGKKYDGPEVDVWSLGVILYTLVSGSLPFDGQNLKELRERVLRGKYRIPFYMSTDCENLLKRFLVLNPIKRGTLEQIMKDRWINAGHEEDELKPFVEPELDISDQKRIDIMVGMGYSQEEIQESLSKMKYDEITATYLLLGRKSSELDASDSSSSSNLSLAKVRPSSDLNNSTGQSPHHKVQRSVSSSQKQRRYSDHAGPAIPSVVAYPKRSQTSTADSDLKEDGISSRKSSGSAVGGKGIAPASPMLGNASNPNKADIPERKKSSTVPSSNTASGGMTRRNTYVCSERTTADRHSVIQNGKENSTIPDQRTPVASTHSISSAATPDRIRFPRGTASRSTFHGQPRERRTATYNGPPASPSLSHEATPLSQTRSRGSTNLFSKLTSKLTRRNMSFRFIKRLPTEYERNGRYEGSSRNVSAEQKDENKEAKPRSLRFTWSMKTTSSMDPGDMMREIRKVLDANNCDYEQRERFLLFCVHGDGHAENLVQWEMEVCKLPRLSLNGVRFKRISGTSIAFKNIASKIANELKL
UniProt O75914, sequence (whole entry, looked up): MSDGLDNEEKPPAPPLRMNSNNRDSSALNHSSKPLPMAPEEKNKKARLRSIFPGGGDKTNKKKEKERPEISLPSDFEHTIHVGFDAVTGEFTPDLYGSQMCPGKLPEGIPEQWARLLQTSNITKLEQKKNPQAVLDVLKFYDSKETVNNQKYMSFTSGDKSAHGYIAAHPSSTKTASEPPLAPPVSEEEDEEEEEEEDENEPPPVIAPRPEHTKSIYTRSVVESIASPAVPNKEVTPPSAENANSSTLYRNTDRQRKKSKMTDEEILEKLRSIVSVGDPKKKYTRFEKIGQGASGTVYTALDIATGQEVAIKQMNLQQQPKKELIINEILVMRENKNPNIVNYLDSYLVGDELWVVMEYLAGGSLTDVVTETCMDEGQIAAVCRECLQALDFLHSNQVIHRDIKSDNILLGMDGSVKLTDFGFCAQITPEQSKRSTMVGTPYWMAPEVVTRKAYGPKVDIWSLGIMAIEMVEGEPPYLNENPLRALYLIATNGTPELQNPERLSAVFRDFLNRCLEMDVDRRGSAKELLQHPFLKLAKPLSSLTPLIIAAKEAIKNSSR
UniProt P53779, sequence (whole entry, looked up): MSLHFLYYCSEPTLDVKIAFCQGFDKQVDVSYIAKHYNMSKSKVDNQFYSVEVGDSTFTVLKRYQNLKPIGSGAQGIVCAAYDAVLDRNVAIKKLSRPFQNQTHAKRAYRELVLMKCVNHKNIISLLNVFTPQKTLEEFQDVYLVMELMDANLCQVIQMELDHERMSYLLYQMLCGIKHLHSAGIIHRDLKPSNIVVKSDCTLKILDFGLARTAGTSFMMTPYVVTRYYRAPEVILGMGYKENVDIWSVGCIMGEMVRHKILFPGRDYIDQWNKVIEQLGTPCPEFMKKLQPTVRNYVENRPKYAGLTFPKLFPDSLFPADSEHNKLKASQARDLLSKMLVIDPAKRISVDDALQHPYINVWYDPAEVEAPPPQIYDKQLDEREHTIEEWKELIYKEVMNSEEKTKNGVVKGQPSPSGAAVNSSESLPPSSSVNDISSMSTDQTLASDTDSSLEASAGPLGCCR
UniProt O15530, sequence (whole entry, looked up): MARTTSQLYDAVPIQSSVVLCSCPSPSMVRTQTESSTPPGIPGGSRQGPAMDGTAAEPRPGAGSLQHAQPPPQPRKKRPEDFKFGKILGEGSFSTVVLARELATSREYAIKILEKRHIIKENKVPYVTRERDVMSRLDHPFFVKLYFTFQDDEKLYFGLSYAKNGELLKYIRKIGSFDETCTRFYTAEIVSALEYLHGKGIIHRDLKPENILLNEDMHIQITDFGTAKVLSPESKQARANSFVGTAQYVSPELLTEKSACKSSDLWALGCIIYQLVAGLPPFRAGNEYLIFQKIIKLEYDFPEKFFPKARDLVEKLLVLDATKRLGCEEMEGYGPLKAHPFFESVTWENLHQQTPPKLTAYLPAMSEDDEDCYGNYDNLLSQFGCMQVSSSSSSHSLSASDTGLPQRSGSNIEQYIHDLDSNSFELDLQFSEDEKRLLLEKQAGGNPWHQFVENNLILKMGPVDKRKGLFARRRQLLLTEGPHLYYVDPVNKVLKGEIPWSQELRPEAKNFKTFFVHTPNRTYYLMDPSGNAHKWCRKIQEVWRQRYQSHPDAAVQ

Block 1 — effect on: enzyme activity; mode: inhibitor; tested at: 0.5 µM; baseline: control
Target: Tyrosine-protein kinase ZAP-70 (ZAP70, Homo sapiens, UniProt P43403)
UniProt P43403, sequence (whole entry, looked up): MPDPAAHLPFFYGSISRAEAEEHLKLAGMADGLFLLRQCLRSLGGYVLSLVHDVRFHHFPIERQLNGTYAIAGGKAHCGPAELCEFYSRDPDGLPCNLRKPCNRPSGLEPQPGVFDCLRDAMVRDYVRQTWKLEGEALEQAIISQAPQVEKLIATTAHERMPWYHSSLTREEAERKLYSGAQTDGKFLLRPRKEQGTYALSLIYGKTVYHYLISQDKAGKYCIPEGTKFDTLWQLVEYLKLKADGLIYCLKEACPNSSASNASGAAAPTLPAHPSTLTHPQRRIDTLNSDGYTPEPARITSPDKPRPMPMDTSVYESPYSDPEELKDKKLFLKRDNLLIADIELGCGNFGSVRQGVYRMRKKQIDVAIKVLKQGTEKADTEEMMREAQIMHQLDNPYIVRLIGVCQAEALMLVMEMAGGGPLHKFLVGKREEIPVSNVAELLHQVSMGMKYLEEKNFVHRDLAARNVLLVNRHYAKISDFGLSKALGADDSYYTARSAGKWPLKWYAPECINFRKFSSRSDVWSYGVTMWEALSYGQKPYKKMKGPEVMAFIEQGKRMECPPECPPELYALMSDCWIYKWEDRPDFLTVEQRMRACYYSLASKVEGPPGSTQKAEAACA
The remaining activity of `CC#CC(=O)Nc1cc2c(Nc3ccc(F)c(Cl)c3)ncnc2cn1` is reported as 90.4%.
`Nc1ncnc2c1cnn2-c1ccccc1` gave a remaining activity of 91.5%.
With `CC(=O)c1ccc(N2CCOCC2)cc1O` the remaining activity was 99.5%.
`CC(C)(C)n1nc(Cc2cccc3ccccc23)c2c(N)ncnc21` gave a remaining activity of 84.6%.
`Cc1ccc(NC2=CC(=O)c3sc(C)nc3C2=O)cc1` gave a remaining activity of 95.4%.

Block 2 — Variant: N85A; method: DHFR PCA, deep sequencing; medium: yeast; baseline: wild-type fitted maximum; direction: higher = stronger binding
Target: ABI1, truncated, D143A, DHFR fusion (Arabidopsis thaliana)
Notes: methotrexate growth selection, single substitutions
Starting sequence: PYL1, truncated, DHFR fusion (Arabidopsis thaliana); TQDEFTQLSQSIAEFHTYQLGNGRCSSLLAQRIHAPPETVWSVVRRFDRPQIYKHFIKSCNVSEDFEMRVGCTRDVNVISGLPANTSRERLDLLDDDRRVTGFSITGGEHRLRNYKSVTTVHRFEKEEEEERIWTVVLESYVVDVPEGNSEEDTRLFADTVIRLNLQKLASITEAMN; partner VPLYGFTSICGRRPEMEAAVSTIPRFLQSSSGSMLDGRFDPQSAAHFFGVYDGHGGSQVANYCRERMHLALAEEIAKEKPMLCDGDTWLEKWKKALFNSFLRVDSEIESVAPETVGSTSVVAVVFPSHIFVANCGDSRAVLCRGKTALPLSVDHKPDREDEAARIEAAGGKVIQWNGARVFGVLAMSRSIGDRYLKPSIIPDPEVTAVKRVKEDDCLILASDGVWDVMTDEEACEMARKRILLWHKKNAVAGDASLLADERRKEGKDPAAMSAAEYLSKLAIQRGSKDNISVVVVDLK
The “relative binding score” was 53.1% (with: (+)-ABA 0.032 µM).
It gave 109% for “relative binding score” (with: (+)-ABA 200 µM).
The “relative binding score” was 83.6% (with: (+)-ABA 4.8 µM).
For with: (+)-ABA 17 µM: “relative binding score” read 86.8%.
with: (+)-ABA 0.39 µM — “relative binding score”: 63.8%.
It gave 88.9% for “relative binding score” (with: (+)-ABA 58 µM).

Block 3 — method: competition with immobilised ligand; tested at: 1 µM
Compound: CO[C@@H](C)c1c(Nc2ccc([C@@H](N(C)C(=O)C3CCS(=O)(=O)CC3)C(F)(F)F)cc2)cnc2cc(Cl)nn12
It gave 96% for remaining binding (Mitogen-activated protein kinase kinase kinase 1 (MAP3K1, Homo sapiens, UniProt Q13233); cell-free assay).
Wee1-like protein kinase 2 (WEE2, Homo sapiens, UniProt P0C1S8); cell-free assay — remaining binding: 100%.
It gave 78% for remaining binding (Mitogen-activated protein kinase 10 (MAPK10, Homo sapiens, UniProt P53779); cell-free assay).
For Tyrosine-protein kinase ABL1, non-phosphorylated (ABL1, Homo sapiens, UniProt P00519, Q252H); cell-free assay: remaining binding read 100%.
The remaining binding was 84% (Tyrosine-protein kinase TXK (TXK, Homo sapiens, UniProt P42681); binding).
It gave 97% for remaining binding (3-phosphoinositide-dependent protein kinase 1 (PDPK1, Homo sapiens, UniProt O15530); cell-free assay).
MAP/microtubule affinity-regulating kinase 3 (MARK3, Homo sapiens, UniProt P27448); cell-free assay — remaining binding: 100%.
The remaining binding was 100% (Serine/threonine-protein kinase PAK 3 (PAK3, Homo sapiens, UniProt O75914); cell-free assay).
Proto-oncogene tyrosine-protein kinase receptor Ret (RET, Homo sapiens, UniProt P07949, V804L); cell-free assay — remaining binding: 78%.
For Serine/threonine-protein kinase 17A (STK17A, Homo sapiens, UniProt Q9UEE5); cell-free assay: remaining binding read 90%.
For Serine/threonine-protein kinase 32C (STK32C, Homo sapiens, UniProt Q86UX6); cell-free assay: remaining binding read 82%.
The remaining binding was 100% (Tyrosine-protein kinase Fgr (FGR, Homo sapiens, UniProt P09769); cell-free assay).

Block 4 — method: universal PBM; form: double-stranded DNA, one strand shown; medium: in vitro; tested at: not given; direction: higher = stronger binding
Target: Sal-like protein 4, full length isoform B (SALL4, Homo sapiens, UniProt Q9UJQ4-2, residues 1-616)
Notes: 8-mer, flanks averaged, mean of replicates
Construct (chain): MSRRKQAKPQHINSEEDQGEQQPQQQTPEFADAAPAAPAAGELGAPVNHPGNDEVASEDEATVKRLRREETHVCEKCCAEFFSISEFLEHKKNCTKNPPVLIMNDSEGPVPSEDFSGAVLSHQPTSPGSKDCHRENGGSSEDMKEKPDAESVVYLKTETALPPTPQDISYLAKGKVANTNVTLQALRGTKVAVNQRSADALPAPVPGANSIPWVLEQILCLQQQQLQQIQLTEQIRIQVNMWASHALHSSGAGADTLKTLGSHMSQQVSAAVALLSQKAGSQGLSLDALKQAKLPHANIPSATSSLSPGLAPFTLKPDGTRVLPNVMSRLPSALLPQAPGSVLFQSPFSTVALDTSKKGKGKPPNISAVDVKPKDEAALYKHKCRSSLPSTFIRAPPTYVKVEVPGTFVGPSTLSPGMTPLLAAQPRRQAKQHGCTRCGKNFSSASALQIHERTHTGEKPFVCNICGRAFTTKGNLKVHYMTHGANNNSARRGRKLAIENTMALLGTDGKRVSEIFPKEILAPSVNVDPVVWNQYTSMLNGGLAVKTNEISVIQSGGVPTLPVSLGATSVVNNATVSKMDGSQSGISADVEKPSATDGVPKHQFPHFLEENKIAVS
`CGAGATCG` has an E-score of -0.221.
For `GAGAGTGA`, the E-score was -0.0584.
For `AGATGGCC`, the E-score was -0.262.
The E-score of `ACGGATTC` is reported as -0.0509.
For `TTCTTAAA`, the E-score was 0.122.
`AACTTCAC` gave an E-score of 0.121.
`ACAGTACG` has an E-score of 0.0977.
The E-score of `CTCACTAA` is reported as -0.111.

For quick reference, copied from above (block 1):
`Nc1ncnc2c1cnn2-c1ccccc1` gave a remaining activity of 91.5%.
With `CC(=O)c1ccc(N2CCOCC2)cc1O` the remaining activity was 99.5%.
